Results collected from several papers.
Each numbered part is a random draw from the data of one study; scales do not carry over between parts. Substitutions count along the parent as printed.

Block 1 — technique: RNAcompete; form: RNA; medium: in vitro; concentration: 20 nM; notes: 7-mer, probes averaged, single round; relative to: mean of 7-mers; reading: higher = stronger binding; quantity: 7-mer Z-score
Target: PABPC1L2, full length, GST fusion (mouse, UniProt A0ABA7IW68)
Target sequence (chain): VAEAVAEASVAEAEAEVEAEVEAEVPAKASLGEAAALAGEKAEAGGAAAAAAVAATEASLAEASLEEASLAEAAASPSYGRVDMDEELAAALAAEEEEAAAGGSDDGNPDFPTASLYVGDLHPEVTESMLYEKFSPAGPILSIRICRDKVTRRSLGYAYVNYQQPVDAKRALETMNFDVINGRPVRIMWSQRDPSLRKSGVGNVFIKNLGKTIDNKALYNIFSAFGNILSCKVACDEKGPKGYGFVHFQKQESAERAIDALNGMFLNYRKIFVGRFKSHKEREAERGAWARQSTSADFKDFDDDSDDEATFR
UGUCAUA: -0.295
GGGGGAG: 0.334
GGCCUUC: -0.325
UAUCGCG: -0.302
GCUGCCA: -0.0409
UCAAACU: -0.166
UGCGGUA: 0.0207
CUGACGC: -0.383
GACGUGG: -0.00289
GUGCAUG: 0.144
GAUUGAC: -0.15
GCGGGAC: 0.247
UAACAUC: -0.121
CCAACGU: -0.121
CAUCCCU: -0.327
CACAUCC: -0.211
GGCGGGC: 0.36
UUAGGGC: 0.271
CCGUUCA: -0.378
GGAGAGC: 0.157
UAUUCUA: -0.251
UAGGUUA: 0.00436
UCACUUG: -0.0718
GAGAGGG: 0.356
GGGGUCC: 0.0207

Block 2 — target: CREB3L4, bZIP domain (human); technique: DHFR protein complementation; medium: yeast; relative to: wild-type JUN-FOS pair; reading: higher = stronger binding; quantity: binding fitness
Notes: single substitutions, most at no-binding floor
Starting sequence: JUN, bZIP domain (human); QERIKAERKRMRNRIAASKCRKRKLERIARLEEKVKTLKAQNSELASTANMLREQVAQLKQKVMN; partner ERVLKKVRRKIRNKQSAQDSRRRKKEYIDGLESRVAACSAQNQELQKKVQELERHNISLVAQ
S43P: -1.37 natural log
R30N: -1.48 natural log
R53P: -1.48 natural log
A49N: -1.65 natural log
T48H: -1.47 natural log
K39S: -1.37 natural log
L52A: -1.53 natural log
M51V: -1.42 natural log
A49S: -1.53 natural log
L38T: -1.52 natural log
A46F: -1.47 natural log
T37Q: -1.49 natural log
E33C: -1.11 natural log
L59R: -1.45 natural log
M51C: -1.38 natural log
A57H: -1.4 natural log
E32W: -1.54 natural log
E32N: -1.36 natural log
Q41P: -1.46 natural log
V35C: -1.13 natural log
E32I: -1.5 natural log

Block 3 — technique: RNA Bind-n-Seq; form: RNA; medium: in vitro; concentration: 365 nM; relative to: no-protein control; reading: higher = stronger binding; quantity: RBNS enrichment (R)
Target: RNA binding protein fox-1 homolog 2, RRM domain, GST-SBP tag (RBFOX2, Homo sapiens, UniProt O43251-10, residues 100-194)
Notes: natural RNA segment, single round, ends assumed
Constant ends, left off below: GGGAGUUCUACAGUCCGACGAUC … UGGAAUUCUCGGGUGCCAA
Target sequence (chain): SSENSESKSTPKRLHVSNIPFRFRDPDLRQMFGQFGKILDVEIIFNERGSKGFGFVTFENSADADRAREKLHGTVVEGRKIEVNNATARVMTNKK
AUCAUGAAUUACCUUAUUUCCAAAAGCAAGUACUCAAAUAAUUGUCUCAAGAGAGGAAGGACAAAACUGUUACAAGCUGAAAUAUUUGGGGAUUUGUUUGACUUGACUAG: 0.71
GGGGUAGCCGGAGAAGGGCCUCUGGAGCAGGUCUGGAGGGGCCAUGGGGAAGUCCUGGGUGUGGGGACACAGUCGGGUUGACCCAGGGCUGUCUCCCUCCAGAGCCUCCC: 0.843
GGGUCUCAGGGCCUGACAUAGGGGUCUUAGCUCAGCCAUAUCCCUCUGAGGCACAGGGCGAGCAGGGACCAAGUAGCAGACGAGUCGAUGCUUCACCUGGCAUCUAGCCA: 0.252
GUUUCCACAGCCUUCAGCCUGUUCUAGAACGAUCACUGCCUUACCCCUGCUGCUGCAGUGGUGUGAGUCGUUUCACGGCUGAUGUCCCUCGGGGGAUUAAAGGAUCUAAA: 0.322
UGUGCACCUUGGGGUUUUGUAAUGACAGUGCUAAAAAAAAAAAGCAUUUUUUUUUUAUGAUUUGUCUCUGUCACCCUUGUCCUUGAGUGCUCUUGCUAUUAACGUUAUUU: 0.597
GUGGAAAUGAUCAGGAAUACUGACCGUGUUUCUCUUGCCUCCGAGGUUCUUGGGCACACUCUAUAGCCAUACUGGACAGGAACCAGGUGCCCCGUGUAGGCAUCGUCGGU: 0.259
GCCUAGCAGCAUGUGUUAGCCAAAGUCUUCCUCCUUGUUUUGAGAAGACUCCAGGACAGGACAGGCAAAUUCAUGGUAUGUAUGCAGUUGCUGCUCCUGCUUCACCUGUG: 1.26
GGAUUUGUGUAGGCUGUAUUCCAGUUGGCUUUUUAGUAAUAGAAAUCCCUCAUAUGAUGUAUCAGAUACAAUUGAGGUUCUAAUCUAGUCUGUUAAUUUAUCUGAAAUUG: 0.681
GCCUGGGUGCCUGGAUGCAUGGAUGCCUGGGUGCCCGGAUGCAUGGAUGCAUGGGUGCCCGGAUGCAUGGGUGCAUGCUGGUCUCAAGUCACAAGCUGCCUCUAUUUCAG: 2.98
GCUGCUCUGCACCCCUCCUGCCGGGAGGCUCUGUGUGGUUAUUGCCAGUUCUUUGUUUACUUUUCAGGUUUGUACUACAAGGUUUAAUAAUAAAAAGUUUUUUGGACAUU: 0.379
GGAAUGUUAGUACCAAAUUUCUACAUGUGAGCUUUGGGGGCCAGGUCCUAGAGAGCCCAAGUGGGAGAAUGGUAUUUAGGAGAUGAAAAACCUGGCCUAGCAAGAGCUUU: 0.984
UUUUCAAUAAUUAGGUCUAAGUGGAGUUUUAAGGUUACUGAUGACUUACAAAUAAUGGGCUCUGAUUGGGCAAUACUCAUUUGAGUUCCUUCCAUUUGACCUAAUUUAAC: 0.326

Block 4 — target: CCNB1, cyclin fold, Cln2 fusion (human); technique: yeast growth competition, sequencing; medium: yeast; notes: strong parent motif; relative to: not given; reading: higher = stronger binding; quantity: normalised enrichment score
Starting sequence: MASTL docking peptide (human); PMIAKNLMCELDE; partner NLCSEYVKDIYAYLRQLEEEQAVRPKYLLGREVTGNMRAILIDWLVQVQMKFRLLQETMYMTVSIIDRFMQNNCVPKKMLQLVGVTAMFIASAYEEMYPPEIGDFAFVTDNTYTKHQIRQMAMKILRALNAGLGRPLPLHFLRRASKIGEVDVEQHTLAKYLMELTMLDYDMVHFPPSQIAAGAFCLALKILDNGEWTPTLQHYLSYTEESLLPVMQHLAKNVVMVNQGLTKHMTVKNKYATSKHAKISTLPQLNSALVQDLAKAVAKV
M8A: 0.25
L11E: 0.387
I3G: 0.47
M2N: 2.53
A4Y: 1.37
C9Y: 2.28
M2I: 2.29
A4E: 1.53
L11C: -0.205
I3A: 0.375
I3Q: -0.151
L11S: 0.14
M8K: 0.357
N6M: 0.36
L11N: -0.0994
L11P: -0.215
E10R: 0.498
M8V: 0.554
E10N: 0.411
C9W: 2.39

Block 5 — technique: protein-binding microarray; form: double-stranded DNA, one strand shown; medium: in vitro; concentration: not given; reading: higher = stronger binding; quantity: E-score
Target: Protein max, full length (MAX, Homo sapiens, UniProt P61244-2, residues 1-151)
Notes: k-mer, scored over probes, only values ≥0.25
GCCTACAC: 0.252
ACCCGTGC: 0.337
AACCCACG: 0.398
CATGTATC: 0.288
TGCCCGCA: 0.281
CACGGGCG: 0.251
GCCCACCC: 0.368
CGTGTCAA: 0.347
AAAACGTG: 0.451
ATGGCATG: 0.34
GAACGCAC: 0.283
AGCGTGCC: 0.408
ATGGCCGC: 0.266
GCACGCCC: 0.335
CACCACAC: 0.289
CCTTGTGA: 0.265
CACCGTGA: 0.269
CACCGTGG: 0.347
ATGTGATA: 0.341
ACGGCATG: 0.401
ATGTGTTG: 0.284

Block 6 — technique: aptamer microarray, sandwich; form: DNA with 2'F-ANA; medium: in vitro; concentration: 200 nM; with: Cy3 exosite-II aptamer, 400 nM; reading: higher = stronger binding; quantity: mean fluorescence intensity; oligonucleotide: GGTTGGTGTGGTTGG
Target: Prothrombin, mature alpha-thrombin (F2, Homo sapiens, UniProt P00734)
Notes: whole 15-mer aptamer, many near background
2'F-ANA at 1 5 11 13 15: 47.7 a.u.
2'F-ANA at 6 7 10 12 13: 171 a.u.
2'F-ANA at 1 2 4 8 9 11 12 15: 244 a.u.
2'F-ANA at 3 5 6 7 8 9 11 13: 101 a.u.
2'F-ANA at 1 3 5 6 8 9 10 11 12 15: 50.3 a.u.
2'F-ANA at 2 6 7 8 10 11 12 13 15: 227 a.u.
2'F-ANA at 2 6 7 8 10 12 13: 159 a.u.
2'F-ANA at 1 3 4 6 9 10 11: 66.7 a.u.
2'F-ANA at 2 5 10 11 12 13 14 15: 57.4 a.u.
2'F-ANA at 3 4 5 6 8 9 10 11 12 13 15: 187 a.u.
2'F-ANA at 2 3 6 10 11 12 13 14: 232 a.u.
2'F-ANA at 1 4 5 7 9: 163 a.u.
2'F-ANA at 3 5 10 11 13: 126 a.u.
2'F-ANA at 3 4 10 12 13 15: 311 a.u.
2'F-ANA at 4 6 9 10 11 12 13 14: 151 a.u.
2'F-ANA at 2 5 9 10 12 13 14: 139 a.u.
2'F-ANA at 1 3 4 5 7 8 9 13 14: 46.3 a.u.
2'F-ANA at 3 5 7 8 13 15: 103 a.u.
2'F-ANA at 2 8 13 15: 369 a.u.
2'F-ANA at 5 6 7 8 9 12 14: 45 a.u.
2'F-ANA at 1 4 5 8 10 11 12 15: 67.7 a.u.
2'F-ANA at 5 6 8 9 10 13 14 15: 51.7 a.u.
2'F-ANA at 1 3 4 5 7 8 9 10 12 13 15: 50.9 a.u.
2'F-ANA at 2 6 7 8 13 14: 137 a.u.
2'F-ANA at 3 4 7 9 11 12 13 15: 662 a.u.

Repeated from above (block 2):
S43P: -1.37 natural log
Q41P: -1.46 natural log
R30N: -1.48 natural log
M51V: -1.42 natural log
V35C: -1.13 natural log
K39S: -1.37 natural log
E32N: -1.36 natural log
M51C: -1.38 natural log
L59R: -1.45 natural log
L52A: -1.53 natural log
T37Q: -1.49 natural log
E33C: -1.11 natural log
